Assay results of several laboratories.
Several values in a cell are separate wells, animals, samples, runs or records.
ABL1 T315I phosphorylated: Tyrosine-protein kinase ABL1, phosphorylated (ABL1, Homo sapiens, UniProt P00519, T315I)
ABL1 non-phosphorylated: Tyrosine-protein kinase ABL1, non-phosphorylated (ABL1, Homo sapiens, UniProt P00519)

SMILES | target | test | setting | scale | remaining binding
CNc1ccc(-c2n[nH]c3c2CCN(C(=O)c2ccccc2)C3)cc1 | ABL1 (Homo sapiens, UniProt P00519, T315I) | cell-free assay, competition with immobilised ligand | 10 µM | – | 7.5%
Cc1ccc(C(=O)Nc2cccc(C(F)(F)F)c2)cc1Nc1cncc(C(N)=O)c1 | ABL1 (Homo sapiens, UniProt P00519, M351T) | binding, competition with immobilised ligand | 1 µM | – | 27%
CC(=O)N1c2ccc(-c3ccc(CNC(=O)c4cn5cc(-c6cnc(N)nc6)nc(N6CCOCC6)c5n4)cc3)cc2CC[C@@H]1C | Tyrosine-protein kinase ABL1, phosphorylated (ABL1, Homo sapiens, UniProt P00519, E255K) | KINOMEscan | 10 µM, E255K, phosphorylated | – | 85%
CNS(=O)(=O)Nc1nccc(Cc2c(C)c3ccc(Oc4ncccc4F)cc3oc2=O)c1F | ABL1 T315I phosphorylated | binding, competition with immobilised ligand | 10 µM | – | 99%
CN1CCN(Cc2ccc(NC(=O)c3cccc(C#Cc4cnc(N)c5ncccc45)c3)cc2C(F)(F)F)CC1 | ABL1 non-phosphorylated | cell-free assay, competition with immobilised ligand | 0.5 µM | – | 0.1%
Cc1ccc(-c2c(/C=C(\C#N)C(=O)NC(C)C)n(CCCO)c3ncnc(N)c23)cc1 | ABL1 non-phosphorylated | cell-free assay, competition with immobilised ligand | 1 µM | – | 100%
COc1ccc(NC(=O)Nc2ccc3c(c2)C(=O)N(C(C)CO)CC(C)C(CN(C)Cc2ccc4c(c2)OCO4)O3)cc1 (stereo not drawn) | ABL1 T315I phosphorylated | binding, competition with immobilised ligand | 10 µM | – | 44%
CCN1CCN(Cc2ccc(NC(=O)c3ccc(C)c(NC(=O)c4cncc(-c5cccs5)c4)c3)cc2C(F)(F)F)CC1 | ABL1 (Homo sapiens, UniProt P00519, E255K) | binding, competition with immobilised ligand | 1 µM | – | 0.75%
C=CC(=O)N1CCc2ccc(-n3c(=O)ccc4cnc5ccc(-c6cnn(C)c6)cc5c43)cc21 | Tyrosine-protein kinase ABL1, non-phosphorylated (ABL1, Homo sapiens, UniProt P00519, F317I) | KINOMEscan, refers to: (F317I)-nonphosphorylated | 1 µM | reference: control | 100%
C=CC(=O)N1CCCC(n2c(=O)c3ncccc3n(Cc3ccc(Oc4ccccc4)cc3)c2=O)C1 (stereo not drawn) | ABL1 T315I phosphorylated | cell-free assay, competition with immobilised ligand | 1 µM | – | 90%
COc1c(Cl)cccc1Nc1c(-c2ccncc2C#C[C@@]2(C)CCCN2C(=O)/C=C/CN(C)C)[nH]c2c1C(=O)NCC2 | ABL1 (Homo sapiens, UniProt P00519, Q252H) | KINOMEscan competition binding | 3 µM | reference: control | 33% and 63%
Nc1ncc2c(n1)-c1c([nH]c3ccc(C4=CCOCC4)cc13)CCC2 | Tyrosine-protein kinase ABL1, non-phosphorylated (ABL1, Homo sapiens, UniProt P00519, H396P) | binding, competition with immobilised ligand | 1 µM | – | 83%

For quick reference, copied from above:
SMILES | target | test | setting | scale | remaining binding
COc1c(Cl)cccc1Nc1c(-c2ccncc2C#C[C@@]2(C)CCCN2C(=O)/C=C/CN(C)C)[nH]c2c1C(=O)NCC2 | ABL1 (Homo sapiens, UniProt P00519, Q252H) | KINOMEscan competition binding | 3 µM | reference: control | 33% and 63%
